Published values of several laboratories.
Every numbered part comes from another study and shows a few of its results, in no order.

Series 1
Target: RNA binding protein fox-1 homolog 2, RRM domain, GST-SBP tag (RBFOX2, Homo sapiens, UniProt O43251-10, residues 100-194)
Method: RNA Bind-n-Seq
Form: RNA
Sample: in vitro
Concentration: 365 nM
Setting: natural RNA segment, single round, ends assumed
Baseline: no-protein control
Reading: higher = stronger binding
Endpoint: RBNS enrichment (R)
GGGAGUUCUACAGUCCGACGAUCGCGCCUCAGCAGCACCCACCCCAGAGCCUCUUGGCAUGCCCAGCUUUCUUUUCAGUACAAGUAUUUGUAGUUUGUAAUGAAUGUGCCACAUACAGGUUUUGUAGCUUAUUUGGAAUUCUCGGGUGCCAA: 1.11
GGGAGUUCUACAGUCCGACGAUCCCUGGGGUUUUUCCUCUUCCUUCUUUGUGGUUUCUGUUUUGUAAUUUAAGAAGAGCUAUUCAUCACUGUAAUUAUUAUUAUUUUCUACAAUAAAUGGGACCUGUGCACAGUGGAAUUCUCGGGUGCCAA: 0.379
GGGAGUUCUACAGUCCGACGAUCCUUGCCCAUUCACUUCAGUCUGCAGAAAGCCUCUUCCCUGGGUUGUCAGCCAGAAAAAAGGAGAGGUCAAAGGUCUGUUCUUCCUGCUACACAGGGUCUGGUUUUAAAAGUGGAAUUCUCGGGUGCCAA: 0.407
GGGAGUUCUACAGUCCGACGAUCCUGAGGAAUCCCAGAAGCAACCAGAGACCAUCAUAAAUGUCAAAUACCGGAGUCUACCCUGCUUCACCAUCUCCCACCCUUAUACUGUCUCUGAUGAGUUAUGCUAAGUUUGGAAUUCUCGGGUGCCAA: 0.652

Series 2
Target: Histone acetyltransferase KAT6A, winged helix 2, GST fusion (KAT6A, Homo sapiens, UniProt Q92794, residues 85-181)
Method: protein binding microarray
Form: double-stranded DNA, one strand shown
Sample: in vitro
Concentration: not given
Setting: 8-mer, flanks averaged, mean of 2 arrays, mostly near background
Baseline: not given
Reading: higher = stronger binding
Endpoint: E-score
Target sequence (chain): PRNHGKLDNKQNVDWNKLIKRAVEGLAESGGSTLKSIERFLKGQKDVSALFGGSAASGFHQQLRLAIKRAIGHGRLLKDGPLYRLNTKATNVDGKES
CCAATGGC: -0.0502
CTGGCACC: -0.0577
CATCCTTC: -0.26
CCACTCAG: -0.0656
AGGCTTTA: -0.194

Series 3
Target: PABPC1L2, full length, GST fusion (mouse, UniProt A0ABA7IW68)
Method: RNAcompete
Form: RNA
Sample: in vitro
Concentration: 20 nM
Setting: 7-mer, probes averaged, single round
Baseline: mean of 7-mers
Reading: higher = stronger binding
Endpoint: 7-mer Z-score
Residues (chain): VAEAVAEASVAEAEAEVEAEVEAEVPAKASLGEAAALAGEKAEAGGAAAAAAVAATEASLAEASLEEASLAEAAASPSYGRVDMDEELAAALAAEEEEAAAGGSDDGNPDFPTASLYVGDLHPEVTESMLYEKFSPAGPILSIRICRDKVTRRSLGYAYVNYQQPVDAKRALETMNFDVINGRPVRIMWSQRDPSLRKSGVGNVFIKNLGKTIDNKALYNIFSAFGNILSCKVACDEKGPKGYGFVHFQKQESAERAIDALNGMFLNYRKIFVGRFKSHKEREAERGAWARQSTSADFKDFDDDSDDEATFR
AACGCCG: -0.132
AAGAGUA: 0.343
UGCUGGU: -0.269
AGUAUUG: -0.208

Further values, each from its own experiment
PhoQ, residues 284 288 289 292 302 303 SSCLAV — fold induction (PhoP, residues 12 14 15 18 19 SPWRL (Escherichia coli, UniProt P23836); Sort-seq, refers to: YFP reporter; E. coli; PhoQ-PhoP variant library, added: 10 µM Mg2+; baseline: high Mg2+ state, higher = stronger signaling): 1.53

A few entries again (series 3):
UGCUGGU: -0.269
